Results from different studies.

| Compound | test | test system | conditions | how to read | quantity | result |
| --- | --- | --- | --- | --- | --- | --- |
| C[C@@H](Nc1cc(F)cc(F)c1)c1cc(C(=O)N(C)C)cc2c(=O)cc(N3CCOCC3)oc12 | measured: Tachycardia | advanced solid tumour patients | oral, dose not given, dose finding |  | patients discontinuing for AE | 0% |
| C=CC(=O)Nc1cc(Nc2nccc(-c3cn(C)c4ccccc34)n2)c(OC)cc1N(C)CCN(C)C | measured: Pneumonitis grade ≥3 | EGFR-mutant MET-altered NSCLC | oral, dose not given, study |  | patients with treatment-related AEs | 0% |
| Cc1cc(NC2CCN(C(=O)OC3CCN(C(=O)/C=C/CN(C)C)C3)CC2)n2ncc(C(C)C)c2n1 (centres unmarked) | Phase I dose escalation CTCAE v4.0, measured: small intestinal obstruction | patients with advanced solid tumours | dose not given, TIW dosing grade 3 or higher |  | patients with adverse event | 0% |
| NC(=O)N1c2ccccc2C=Cc2ccccc21 |  | male patients | oral, dose not given, treatment-related adverse events |  | patients with abdominal discomfort | 7% |
| O=C(Nc1nc2cccc(-c3ccc(CN4CCS(=O)(=O)CC4)cc3)n2n1)C1CC1 |  | rheumatoid arthritis patients | oral, 100 mg twice daily, 4 weeks, regardless of relatedness |  | patients with epigastric discomfort | 0% |
| CCOc1c([C@H](C)n2nc(C)c3c(N)ncnc32)cc(Cl)c(F)c1[C@@H]1CNC(=O)C1 | measured: QTcF change above 60 ms | previously treated B-cell malignancy | oral, 10 mg once daily, overall population | baseline: baseline | patients | 0% |
| C[C@@H](c1ccc2nccn2c1)n1nnc2ncc(-c3cnn(C)c3)nc21 | measured: treatment-related grade ≥3 Myalgia | EGFR-mutant MET-altered NSCLC | oral, dose not given, all |  | patients with adverse events | 0% |
| COc1ccc([C@@H](O)c2cc(-c3ncnc4cc(N5CCOCC5)ccc34)c(F)cc2Cl)nn1 | measured: Proctitis | locally advanced rectal cancer patients | dose not given, all dose groups, added: capecitabine plus radiotherapy |  | patients with drug-related AE | 37% |
| CNC(=O)c1ccc(-c2cnc3ncc(Cc4ccc5ncccc5c4)n3n2)cc1F | measured: Constipation, all grades | hepatocellular carcinoma patients | oral, 600 mg twice daily, expansion cohort, any causality |  | patients with adverse event | 18% |
| COc1cc(Nc2ncc3c(n2)-c2ccc(Cl)cc2C(c2c(F)cccc2OC)=NC3)ccc1C(=O)O | measured: back pain, grade 1 | cancer patients, phase 1/2 | oral, dose not given, added: pembrolizumab |  | patients with adverse event | 13% |
| FC(F)(F)c1ccc(CNc2ccc(Cc3c[nH]c4ncc(Cl)cc34)cn2)cn1 | measured: at least 1 adverse event | advanced solid tumour patients | oral, 1000 mg/day, all grades, all cohorts |  | patients with treatment-related adverse event | 92% |

Excerpt of the above:
| Compound | test | test system | conditions | how to read | quantity | result |
| --- | --- | --- | --- | --- | --- | --- |
| NC(=O)N1c2ccccc2C=Cc2ccccc21 |  | male patients | oral, dose not given, treatment-related adverse events |  | patients with abdominal discomfort | 7% |
